Experimental data gathered from unrelated publications.
Every numbered part comes from another study and shows a few of its results, in no order.

Series 1 — read-out: enzyme activity; mode: inhibitor; concentration: 10 µM
Target: Calcium/calmodulin-dependent protein kinase type II subunit alpha (CAMK2A, Homo sapiens, UniProt Q9UQM7)
Chain of UniProt Q9UQM7 (whole entry, looked up): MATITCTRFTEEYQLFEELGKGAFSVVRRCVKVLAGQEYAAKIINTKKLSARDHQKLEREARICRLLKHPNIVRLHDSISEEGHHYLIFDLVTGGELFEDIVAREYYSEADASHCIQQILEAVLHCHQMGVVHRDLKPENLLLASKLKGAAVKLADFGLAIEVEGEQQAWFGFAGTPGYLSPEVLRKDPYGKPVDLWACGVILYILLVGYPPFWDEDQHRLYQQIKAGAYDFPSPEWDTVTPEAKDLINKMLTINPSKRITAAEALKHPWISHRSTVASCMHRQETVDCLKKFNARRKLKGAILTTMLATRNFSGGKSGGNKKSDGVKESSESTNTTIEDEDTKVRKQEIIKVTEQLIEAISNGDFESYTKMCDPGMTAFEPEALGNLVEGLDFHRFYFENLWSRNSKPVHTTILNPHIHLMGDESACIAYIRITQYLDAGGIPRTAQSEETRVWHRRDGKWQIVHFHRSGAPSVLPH
For `CCCc1nc(C)c2c(=O)nc(-c3cc(S(=O)(=O)N4CCN(CC)CC4)ccc3OCC)[nH]n12`, the inhibition was 0%.
The inhibition of `COc1cc(C)ccc1O` is reported as -70%.
With `C[C@@H](O)[C@@H]1NC(=O)[C@@H](N)C[C@@H](O)[C@@H](O)NC(=O)[C@@H]2[C@@H](O)[C@@H](C)CN2C(=O)[C@H]([C@H](O)CC(N)=O)NC(=O)[C@H]([C@H](O)[C@@H](O)c2ccc(O)c(OS(=O)(=O)O)c2)NC(=O)[C@@H]2C[C@@H](O)CN2C1=O` the inhibition was -29%.
`CC1(C)[C@@H](O[C@@H]2O[C@H](C(=O)O)[C@@H](O)[C@H](O)[C@H]2O)CC[C@]2(C)[C@H]3C(=O)C=C4[C@@H]5C[C@@](C)(C(=O)O)CC[C@]5(C)CC[C@@]4(C)[C@]3(C)CC[C@@H]12` has an inhibition of -25%.
`CNC(=O)c1c(C)oc2cc(Oc3ncnc4cc(OC)c(OC)cc34)ccc12` gave an inhibition of -16%.

Series 2 — method: phase 2a trial; species: idiopathic pulmonary fibrosis patients
Compound: CC(C)n1cnc(-c2ccc(F)cc2)c1-c1ncc(C(=O)Nc2ccc(N3CCN(C)CC3)cc2)[nH]1
It gave 0% for “patients with pneumonia” (60 mg once daily, grade 5 emergent event).
It gave 0% for “patients with pneumonia” (60 mg once daily, grade 4 emergent event).
30 mg once daily, grade 2 emergent event — “patients with pneumonia”: 0%.
30 mg once daily, grade 3 emergent event — “patients with pneumonia”: 0%.
The “patients with pneumonia” was 0% (30 mg once daily, grade 1 emergent event).
60 mg once daily, grade 1 emergent event — “patients with pneumonia”: 0%.
It gave 0% for “patients with pneumonia” (all arms pooled, grade 2 emergent event).

Series 3 — read-out: enzyme activity; mode: inhibitor; concentration: 0.5 µM; baseline: control
Target: Tyrosine-protein kinase Srms (SRMS, Homo sapiens, UniProt Q9H3Y6)
Chain of UniProt Q9H3Y6 (whole entry, looked up): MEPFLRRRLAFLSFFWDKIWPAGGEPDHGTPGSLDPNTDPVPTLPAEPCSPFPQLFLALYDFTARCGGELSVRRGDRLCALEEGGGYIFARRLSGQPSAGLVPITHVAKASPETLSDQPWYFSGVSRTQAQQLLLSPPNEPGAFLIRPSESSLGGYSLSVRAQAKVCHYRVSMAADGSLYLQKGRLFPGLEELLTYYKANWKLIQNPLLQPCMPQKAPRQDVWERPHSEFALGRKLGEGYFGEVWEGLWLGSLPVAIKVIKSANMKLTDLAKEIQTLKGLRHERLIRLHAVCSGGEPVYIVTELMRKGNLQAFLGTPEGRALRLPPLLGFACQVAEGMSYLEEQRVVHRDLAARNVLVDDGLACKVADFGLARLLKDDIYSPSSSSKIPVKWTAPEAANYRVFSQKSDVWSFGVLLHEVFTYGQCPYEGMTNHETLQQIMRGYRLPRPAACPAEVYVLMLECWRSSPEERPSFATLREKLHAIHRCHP
`COc1ccc(OC)c2c(=S)c3ccccc3[nH]c12` has a remaining activity of 83.5%.
For `CO[C@H]1C[C@@H]2CC[C@@H](C)[C@@](O)(O2)C(=O)C(=O)N2CCCC[C@H]2C(=O)O[C@H]([C@H](C)C[C@@H]2CC[C@@H](O)[C@H](OC)C2)CC(=O)[C@H](C)/C=C(\C)[C@@H](O)[C@@H](OC)C(=O)[C@H](C)C[C@H](C)/C=C/C=C/C=C/1C`, the remaining activity was 108%.
With `Cc1ccc(Nc2nccc(N(C)c3ccc4c(C)n(C)nc4c3)n2)cc1S(N)(=O)=O` the remaining activity was 115%.
For `OCC(O)CCON=C1C(c2c(O)[nH]c3ccccc23)=Nc2ccccc21` (stereo not drawn), the remaining activity was 102%.
For `COc1cc2ncnc(Nc3ccc(F)c(Cl)c3)c2cc1OCCCN1CCOCC1`, the remaining activity was 96.4%.
For `C#Cc1cccc(Nc2ncnc3cc(OCCOC)c(OCCOC)cc23)c1`, the remaining activity was 93.2%.
The remaining activity of `CN(C)c1ccc(C=C2C(=O)Nc3ccccc32)cc1` is reported as 97.9%.
With `O=C(CCCc1ccc(-c2ccccc2F)cc1)Nc1ccc(O)cc1` the remaining activity was 101%.
The remaining activity of `Cn1c2ccccc2c2c3c(c4c5ccccc5n(CCC#N)c4c21)CNC3=O` is reported as 96.6%.
The remaining activity of `O=S(=O)(c1cccc2cnccc12)N1CCCNCC1` is reported as 97.5%.
With `Cc1nc(-c2ccccc2)c(-c2ccncc2)o1` the remaining activity was 102%.
The remaining activity of `Cc1ccc(NC(=O)c2ccc(CN3CCN(C)CC3)cc2)cc1Nc1nc(-c2cccnc2)cs1` is reported as 92.9%.
With `COc1ccc(CNC(=O)Nc2ncc([N+](=O)[O-])s2)cc1` the remaining activity was 93.3%.
The remaining activity of `O=C(Nc1cccc(Nc2cc(Nc3cccc(C(F)(F)F)c3)ncn2)c1)C1CC1` is reported as 95.2%.
For `Nc1ncnc2n[nH]c(Nc3ccc(F)cc3)c12`, the remaining activity was 104%.

Series 4 — cell line: sample D normal colon organoid; method: CellTiter-Glo; concentration: 1 µM; notes: mean of replicates; baseline: DMSO
`O=C(O)[C@@H]1[C@@H](Cn2nnc3ccccc3c2=O)CC[C@H]1C(=O)c1ccc(OCCC2CCOCC2)cc1` gave a viability of 127%.
For `NS(=O)(=O)c1cc(NC(=O)C2(c3ccccc3Cl)CC2)ccc1Oc1cccc(Cl)c1`, the viability was 95%.
`C[C@H](NC(=O)c1cnc2n1[C@](C)(Cc1ccc(C#N)cc1)C(=O)N2c1cc(Cl)c(F)c(Cl)c1)C(=O)NC1(c2ccccn2)CC1` has a viability of 98.6%.
`Cc1ccc2[nH]c(CNCCCc3ccncc3)cc(=O)c2c1` gave a viability of 103%.
The viability of `CC(=O)c1c(NS(C)(=O)=O)c2cc(-c3ccc(Cl)cc3)c(-c3ccc(Cl)cc3Cl)nc2n(C)c1=O` is reported as 93.5%.
For `O=C(Nc1cnc(Oc2ccc(F)cc2)nc1)N1CCc2ncccc2[C@@H]1c1ccc(F)cc1`, the viability was 139%.
`CN([C@@H]1CCc2c(CC(=O)O)c3ccccc3n2C1)S(=O)(=O)c1ccc(F)cc1` gave a viability of 108%.
With `CC(=O)C1=C(C)N(c2cccc(C(F)(F)F)c2)C(=O)N[C@H]1c1ccc(C#N)nc1` the viability was 102%.
For `Cc1c(Oc2ccc(F)cc2)c(OC(C)C)nn1-c1ccc(C2CC2)cn1`, the viability was 98.9%.

Repeated from above (series 4):
With `CC(=O)C1=C(C)N(c2cccc(C(F)(F)F)c2)C(=O)N[C@H]1c1ccc(C#N)nc1` the viability was 102%.
`C[C@H](NC(=O)c1cnc2n1[C@](C)(Cc1ccc(C#N)cc1)C(=O)N2c1cc(Cl)c(F)c(Cl)c1)C(=O)NC1(c2ccccn2)CC1` has a viability of 98.6%.
For `O=C(Nc1cnc(Oc2ccc(F)cc2)nc1)N1CCc2ncccc2[C@@H]1c1ccc(F)cc1`, the viability was 139%.
